Measured values from different studies.
Each line is one published result; not all experiments were run side by side. ± marks the error that the study gave.

SMILES | assay | test system | setting | how to read | measurement | result
C[N+](C)(CCOCCOCCOCCOCCOCCOCCOCCNC(=S)Nc1ccc(CC2CN(CC(=O)[O-])CCN(CC(=O)[O-])CCN2CC(=O)[O-])cc1)C[c-]1cccc1.[64Cu+2].[Fe+2].c1cc[cH-]c1 (stereo not drawn) | pretargeted biodistribution | nude mouse, BxPC-3 xenograft | 24 h post-radioligand, 72 h lag time | – | tumour uptake | 0.5 ± 0.4 %ID/g
Cc1n[nH]c(C)c1CCCOc1cc(C(=O)NCCCCC(NC(=O)CN2CCN(CC(=O)[O-])CCN(CC(=O)[O-])CCN(CC(=O)[O-])CC2)C(=O)NCC2CCC(C(=O)NC(Cc3ccc4ccccc4c3)C(=O)NCCCCC(NC(=O)NC(CCC(=O)O)C(=O)O)C(=O)O)CC2)ccc1F.[177Lu+3] (stereo not drawn) | ex vivo biodistribution | mouse 22Rv1 xenograft, tumour | 96 h post-injection | – | tumour uptake | 4.87 ± 0.91 %ID/g
C[N+](C)(CCOCCOCCOCCNC(=S)Nc1ccc(C[C@H]2CN(CC(=O)[O-])CCN(CC(=O)[O-])CCN2CC(=O)[O-])cc1)C[c-]1cccc1.[64Cu+2].[Fe+2].c1cc[cH-]c1 | pretargeted PET | nude mouse, BxPC-3 xenograft | 8 h post-radioligand, 72 h lag time | – | tumour uptake | 6.9 ± 2.4 %ID/mL
O[C@@H]1[C@@H](O)[C@H](n2cc(COc3ccc(-c4nncnn4)cc3)nn2)O[C@H](C[18F])[C@H]1O | PET imaging | BALB/c nude mouse, LS174T xenograft, tumour, heart as blood | intravenous, 1 h, added: CC49-TCO 72 h before | baseline: tumour over heart | tumour to blood ratio | 0.8
O=C([O-])CN1CCN(CC(=O)[O-])CCN(CC(=O)NCC2CCC(C(=O)NC(Cc3ccc4ccccc4c3)C(=O)NCCCCC(NC(=O)NC(CCC(=O)O)C(=O)O)C(=O)O)CC2)CCN(CC(=O)[O-])CC1.[68Ga+3] (stereo not drawn) | ex vivo biodistribution | mouse 22Rv1 xenograft, tumour | 4 h post-injection | – | tumour uptake | 1 ± 0.53 %ID/g
[18F]CCn1cc(COc2ccc(-c3nncnn3)cc2)nn1 | – | BALB/c nude mouse, LS174T xenograft | intravenous, dose not given, 1 h, added: CC49-TCO pretargeting | – | tumour to control tumour ratio | 0.9
CCCC[C@H](NC(=O)CNC(=O)CNC(=O)[C@H](CCCCNC(=O)[C@H](CC(=O)O)NC(=O)C(C)c1ccc(CC(C)C)cc1)NC(=O)CN1CCN(CC(=O)O)CCN(CC(=O)O)CCN(CC(=O)O)CC1)C(=O)N[C@H]1CC(=O)NCCCC[C@@H](C(N)=O)NC(=O)[C@H](Cc2c[nH]c3ccccc23)NC(=O)[C@H](CCCNC(=N)N)NC(=O)[C@@H](Cc2ccccc2)NC(=O)[C@H](Cc2c[nH]cn2)NC1=O (stereo partly drawn) [lutetium-177 labelled] | – | C57 mouse | intravenous, 2 h, added: NDP-MSH blockade | baseline: tumour over lung | tumour to tissue ratio | 2.2
O=C(CCc1cn([C@@H]2O[C@H](C[18F])[C@@H](O)[C@H](O)[C@H]2O)nn1)Nc1ccc(-c2nnc(-c3ccccn3)nn2)nc1 | – | BALB/c nude mouse, LS174T xenograft | intravenous, 1 h, added: CC49-TCO 72 h before | – | tumour to muscle ratio | 4.8
CCCC[C@H]1C(=O)N(C)[C@@H](CCCC)C(=O)N[C@@H](CCCCNC(=S)Nc2ccc(CN3CCN(CC(=O)O)CCN(CC(=O)O)CC3)cc2)C(=O)N[C@H](C(=O)NCC(N)=O)CSCC(=O)N[C@@H](Cc2ccc(O)cc2)C(=O)N(C)[C@@H](C)C(=O)N[C@@H](CC(N)=O)C(=O)N2CCC[C@H]2C(=O)N[C@@H](Cc2cnc[nH]2)C(=O)N[C@@H](CCC(=O)O)C(=O)N2C[C@H](O)C[C@H]2C(=O)N[C@@H](Cc2c[nH]c3ccccc23)C(=O)N[C@@H](CO)C(=O)N[C@@H](Cc2cn(CC(=O)O)c3ccccc23)C(=O)N1C [fluorine-18 labelled] | – | SCaBER subcutaneous xenograft, NSG mouse, tumour | intravenous, 60 min | – | tumour uptake | 1.38 ± 0.38 %ID/g

Repeated from above:
SMILES | assay | test system | setting | how to read | measurement | result
C[N+](C)(CCOCCOCCOCCNC(=S)Nc1ccc(C[C@H]2CN(CC(=O)[O-])CCN(CC(=O)[O-])CCN2CC(=O)[O-])cc1)C[c-]1cccc1.[64Cu+2].[Fe+2].c1cc[cH-]c1 | pretargeted PET | nude mouse, BxPC-3 xenograft | 8 h post-radioligand, 72 h lag time | – | tumour uptake | 6.9 ± 2.4 %ID/mL
